Measurements from different studies.
Lines come from different studies, so protocols differ. Several values in a cell are separate wells, animals, samples, runs or records. Numbers after ± are the reported error. ≈ marks a conversion by molar mass, not a printed value.

`CN1Cc2cc(Cl)ccc2-n2c(nnc2C2CCN(c3cccc([18F])n3)CC2)C1` gave a tissue uptake of 0.28 ± 0.05 %ID/g (C57BL/6 mouse male, brain; intravenous, 3.7 MBq, 60 min).
For `C=CC(=O)Nc1cccc(Cn2ncc3cnc(Nc4cnn(CCOC)c4)nc32)c1`, the serum ALT was 31.2 ± 10.1 U/L (Sprague-Dawley rat female, serum; oral, 180 mg/kg, day 28, 28-day subacute toxicity).
The tissue uptake of `CC[C@H](C)[C@H](NC(=O)[C@H](CCCCN)NC(=O)CNC(=O)[C@H](CC(C)C)NC(=O)[C@H](Cc1ccccc1)NC(=O)[C@H](CCCCN)NC(=O)[C@H](CO)NC(=O)[C@H](Cc1ccccc1)NC(=O)[C@H](Cc1c[nH]c2ccccc12)NC(=O)[C@H](CCC(N)=O)NC(=O)[C@@H](NC(=O)[C@H](Cc1ccccc1)NC(=O)CCCCCNC(=O)CN1CCN(CC(=O)O)CCN(CC(=O)O)CCN(CC(=O)O)CC1)C(C)C)C(=O)N[C@@H](CCC(=O)O)C(=O)N1CCC[C@H]1C(=O)N[C@H](CC(=O)O)C(=O)N[C@H](C(=O)N[C@@H](CO)C(=O)N[C@@H](CCC(N)=O)C(=O)N[C@H](C(=O)N[C@@H](CCC(N)=O)C(=O)N[C@@H](CC(=O)O)C(=O)N1CCC[C@H]1C(=O)N[C@@H](CC(N)=O)C(=O)N[C@@H](CC(=O)O)C(=O)N[C@@H](CCC(N)=O)C(=O)N[C@@H](Cc1ccc(O)cc1)C(=O)N[C@@H](CCC(=O)O)C(=O)N1CCC[C@H]1C(=O)N[C@@H](Cc1ccccc1)C(=O)O)C(C)C)C(C)C` [copper-64 labelled] is reported as 16.4 ± 2.5 %ID/g (C57BL/6 mice, male, MC-38 tumour-bearing, kidneys; 2 h, checkpoint inhibitor-treated).
With `CNCCNC(=O)[C@@H]1NC(=O)[C@@H]2Cc3ccc(cc3)Oc3cc4cc(c3O)-c3ccc5c(c[nH]c5c3)C[C@@H](NC(=O)C(N)c3ccc(O)cc3)C(=O)N[C@H](c3ccc(O)cc3)C(=O)N[C@H]4C(=O)N[C@@H](C(=O)N2C)c2ccc(cc2)Oc2cc1ccc2O` (stereo partly drawn) the thermodynamic solubility was 8.3 µg/mL (≈ 7.05 µM) (saline; 24 h, 25 °C).
`CC(=O)NCCCC[C@@H]1NC(=O)[C@H](Cc2c[nH]c3c(C)cccc23)NC(=O)[C@H]([C@@H](C)O)NC(=O)[C@H](CC(N)=O)NC(=O)[C@@H](NC(C)=O)C(C)(C)SSC(C)(C)[C@@H](C(=O)N[C@@H](Cc2ccc(OCCN)cc2)C(=O)N[C@@H](Cc2ccc3ccccc3c2)C(=O)NC2(C(=O)N[C@@H](CCC(=O)O)C(=O)N[C@@H](CC(N)=O)C(=O)N[C@@H](Cc3cccnc3)C(=O)N(C)CC(N)=O)CCOCC2)NC1=O` gave a fraction unbound of 28.2 ± 0.4% (equilibrium dialysis; rabbit plasma; 1 µM).
The blood concentration of `C=Cc1c(C)c2cc3nc(c(CC(=O)O)c4[nH]c(cc5nc(cc1[nH]2)C(C)=C5CC)c(C)c4C(=O)O)[C@@H](CCC(=O)NCCCC[C@H](NC(C)=O)C(=O)N[C@@H](Cc1ccccc1)C(=O)N[C@@H](Cc1ccccc1)C(=O)N[C@H](C(=O)N[C@@H](CC(C)C)C(=O)N[C@@H](CCCCN)C(=O)N[C@@H](CO)C(=O)NCC(=O)N[C@@H](CCC(N)=O)C(=O)N[C@@H](Cc1ccc(O)cc1)C(=O)N[C@@H](C)C(=O)N[C@@H](CO)C(=O)N[C@@H](Cc1ccc(O)cc1)C(=O)N[C@@H](Cc1c[nH]cn1)C(=O)N[C@@H](CS)C(=O)N[C@@H](Cc1c[nH]c2ccccc12)C(=O)N[C@@H](CS)C(=O)N[C@@H](Cc1c[nH]c2ccccc12)C(=O)N[C@@H](CCCNC(=N)N)C(=O)N[C@@H](CC(=O)O)C(=O)N1CCC[C@H]1C(=O)NCC(=O)N[C@@H](CCCNC(=N)N)C(=O)N[C@@H](CO)C(=O)NCC(=O)NCC(=O)N[C@@H](CO)C(=O)N[C@@H](CCCCN)C(N)=O)C(C)C)[C@@H]3C` is reported as 152 µg/mL and 163 µg/mL (mouse, blood; 0.5 h).
With `N=C(N)NCCC[C@@H](NC(=O)[C@H](N)Cc1c[nH]c2ccccc12)C(=O)N[C@H](CCCCN)C(=O)N[C@H](Cc1c[nH]c2ccccc12)C(=O)N[C@H](CCCNC(=N)N)C(=O)N[C@H](CCCCN)C(=O)N[C@H](Cc1c[nH]c2ccccc12)C(=O)N[C@H](CCCNC(=N)N)C(=O)N[C@H](CCCCN)C(=O)N[C@H](Cc1c[nH]c2ccccc12)C(=O)N[C@H](CCCNC(=N)N)C(=O)N[C@H](CCCCN)C(N)=O` the Kim-1 level was 71.6 ng/mL (mouse, serum; 20 mg/kg).
For `CN[C@H](CC(C)C)C(=O)N[C@H]1C(=O)N[C@@H](CC(N)=O)C(=O)N[C@H]2C(=N)N[C@H]3C(=O)N[C@H](C(=O)N[C@H](C(=O)NCCCNC(=N)N)c4cc(O)cc(O)c4-c4cc3ccc4O)[C@H](O)c3ccc(c(Cl)c3)Oc3cc2cc(c3O[C@@H]2O[C@H](CO)[C@@H](O)[C@H](O)[C@H]2O[C@H]2C[C@](C)(NCc3ccc(-c4ccc(Cl)cc4)cc3)[C@H](O)[C@H](C)O2)Oc2ccc(cc2Cl)[C@H]1O`, “volume of distribution” read 0.26 L/kg (mouse; intravenous, 10 mg/kg).
With `N#Cc1ccccc1CC(N)C(=O)NC(Cc1ccc(Cl)cc1Cl)C(=O)NC(CC(=O)NCCCc1cccnc1)Cc1ccc(F)cc1` (stereo not drawn) the remaining compound was 85% (CD-1 mouse, liver microsomes; 1 µM, time not given, epoxide hydrolase conditions).
`C=Cc1c(C)c2cc3nc(c(CC(=O)[O-])c4[n-]c(cc5nc(cc1[n-]2)C(C)=C5CC)c(C)c4C(=O)[O-])C(CCC(=O)[O-])C3C.[Cu+2].[Na+].[Na+].[Na+]` (stereo not drawn) gave a haemoglobin of 14.4 ± 0.64 g/dL (Wistar rat, male; oral, 500 mg/kg daily, 28 days).
Under “organ-to-body weight ratio”, `O=C1NC2(CC2)COc2ncc(F)cc2[C@H]2COCCN2c2ccn3ncc1c3n2` is recorded as 2.97 ± 0.476% (Sprague-Dawley rat, male, liver; oral, 20 mg/kg/day, 4 weeks dosing, end of recovery).
With `COc1ccc([C@@H]2CC(=O)c3c(O)cc(O[C@@H]4O[C@H](CO)[C@@H](O)[C@H](O)[C@H]4O[C@@H]4O[C@@H](C)[C@H](O)[C@@H](O)[C@H]4O)cc3O2)cc1O` the faecal excretion was 22.2 ± 14 ng (male Sprague-Dawley rats, obese, faeces; oral, 100 mg/kg, 48 to 36 h).
For `CCCCCCCCCCCCCCCC(=O)N[C@@H](CCC(=O)NCCOCCOCCC(=O)NCCOCCOCCC(=O)NCCCC[C@H](NC(=O)[C@H](CC(=O)O)NC(=O)[C@H](CC(C)C)NC(=O)[C@H](Cc1ccc(O)cc1)NC(=O)[C@H](CCCCN)NC(=O)[C@H](CO)NC(=O)[C@H](Cc1ccc(O)cc1)NC(=O)[C@H](CC(=O)O)NC(=O)[C@H](CO)NC(=O)[C@@H](NC(=O)[C@H](Cc1ccccc1)NC(=O)[C@@H](NC(=O)CNC(=O)[C@H](CCC(N)=O)NC(=O)[C@@H](CO)NC(=O)[C@@H](N)Cc1c[nH]cn1)[C@@H](C)O)[C@@H](C)O)C(=O)N[C@@H](CCCNC(=N)N)C(=O)N[C@@H](CCCNC(=N)N)C(=O)N[C@@H](C)C(=O)N[C@@H](CCC(N)=O)C(=O)N[C@@H](CC(=O)O)C(=O)N[C@@H](Cc1ccccc1)C(=O)N[C@H](C(=O)N[C@@H](CCC(N)=O)C(=O)N[C@@H](Cc1c[nH]c2ccccc12)C(=O)N[C@@H](CC(C)C)C(=O)N[C@@H](CC(C)C)C(=O)N[C@@H](CC(N)=O)C(=O)N[C@H](C(=O)NCC(=O)NCC(=O)N1CCC[C@H]1C(=O)N[C@@H](CO)C(=O)N[C@@H](CO)C(=O)NCC(=O)N[C@@H](C)C(=O)N1CCC[C@H]1C(=O)N1CCC[C@H]1C(=O)N1CCC[C@H]1C(=O)N[C@@H](CO)C(N)=O)[C@@H](C)O)C(C)C)C(=O)O`, the total cholesterol was 2.11 ± 0.26 mmol/L (rhesus monkey, male; subcutaneous, 300 µg/kg once daily, 28 days).
For `CSCC[C@H](NC(=O)CNC(=O)[C@H](CCCCN)NC(=O)[C@H](CC(C)C)NC(=O)[C@@H]1CCCN1C(=O)[C@H](CO)NC(=O)[C@H](Cc1c[nH]cn1)NC(=O)[C@H](Cc1c[nH]c2ccccc12)NC(=O)[C@H](CCCNC(=N)N)NC(=O)[C@H](CC(C)C)NC(=O)[C@H](CCCNC(=N)N)NC(=O)[C@H](Cc1c[nH]c2ccccc12)NC(=O)[C@H](CS)NC(=O)CCCCCNC(=O)CN1CCN(CC(=O)O)CCN(CC(=O)O)CCN(CC(=O)O)CC1)C(=O)O` [copper-64 labelled], the tissue uptake was 2.1 %ID/g (ex vivo biodistribution; BALB/c nude mice, bladder; intravenous, dose not given, 1 h, Huh-7 tumour-bearing).
The MRT of `CC1(C)C(=O)N(c2ccc(C#N)c(C(F)(F)F)c2)C(=S)N1c1ccc(C(=O)O)c(F)c1` is reported as 14.1 ± 2.24 days (human, male, plasma; oral, 160 mg, single dose, fasting).
For `CCCCCCCCCCCCCCCC(=O)OCC(CSC[C@H](N)C(=O)N[C@@H](CO)C(=O)N[C@@H](CCCCN)C(=O)N[C@@H](CCCCN)C(=O)N[C@@H](CCCCN)C(=O)N[C@@H](CCCCN)C(=O)NCCCCCC(=O)N[C@@H](CCCCN)C(=O)N[C@@H](CC(C)C)C(=O)N[C@H](C(=O)N[C@@H](Cc1ccccc1)C(=O)N[C@@H](Cc1ccccc1)C(=O)N[C@@H](Cc1ccc2ccccc2c1)C(=O)O)C(C)C)OC(=O)CCCCCCCCCCCCCCC` (stereo partly drawn), the serum AST was 93 U/L and 92.6 U/L and 116 U/L and 117 U/L and 93.7 U/L (C57BL/6J mouse, serum; intraperitoneal, dose not given).
`Nc1nonc1-c1nnc2c(n1)-c1ccccc1C2=O` — result for “maximum tolerated dose”: 20 mg/kg (BALB/c mice; intraperitoneal, repeated, 3 weeks).
With `CCc1nn(C)c2nc(-c3ccc(C(=O)O)cc3)nc(NCc3ccccc3)c12` the body weight was 22.9 g and 23.1 g and 23.2 g and 21.4 g (NSG mice; dose not given, day 3 of treatment).

Some of these lines once more:
With `CNCCNC(=O)[C@@H]1NC(=O)[C@@H]2Cc3ccc(cc3)Oc3cc4cc(c3O)-c3ccc5c(c[nH]c5c3)C[C@@H](NC(=O)C(N)c3ccc(O)cc3)C(=O)N[C@H](c3ccc(O)cc3)C(=O)N[C@H]4C(=O)N[C@@H](C(=O)N2C)c2ccc(cc2)Oc2cc1ccc2O` (stereo partly drawn) the thermodynamic solubility was 8.3 µg/mL (≈ 7.05 µM) (saline; 24 h, 25 °C).
For `CCCCCCCCCCCCCCCC(=O)N[C@@H](CCC(=O)NCCOCCOCCC(=O)NCCOCCOCCC(=O)NCCCC[C@H](NC(=O)[C@H](CC(=O)O)NC(=O)[C@H](CC(C)C)NC(=O)[C@H](Cc1ccc(O)cc1)NC(=O)[C@H](CCCCN)NC(=O)[C@H](CO)NC(=O)[C@H](Cc1ccc(O)cc1)NC(=O)[C@H](CC(=O)O)NC(=O)[C@H](CO)NC(=O)[C@@H](NC(=O)[C@H](Cc1ccccc1)NC(=O)[C@@H](NC(=O)CNC(=O)[C@H](CCC(N)=O)NC(=O)[C@@H](CO)NC(=O)[C@@H](N)Cc1c[nH]cn1)[C@@H](C)O)[C@@H](C)O)C(=O)N[C@@H](CCCNC(=N)N)C(=O)N[C@@H](CCCNC(=N)N)C(=O)N[C@@H](C)C(=O)N[C@@H](CCC(N)=O)C(=O)N[C@@H](CC(=O)O)C(=O)N[C@@H](Cc1ccccc1)C(=O)N[C@H](C(=O)N[C@@H](CCC(N)=O)C(=O)N[C@@H](Cc1c[nH]c2ccccc12)C(=O)N[C@@H](CC(C)C)C(=O)N[C@@H](CC(C)C)C(=O)N[C@@H](CC(N)=O)C(=O)N[C@H](C(=O)NCC(=O)NCC(=O)N1CCC[C@H]1C(=O)N[C@@H](CO)C(=O)N[C@@H](CO)C(=O)NCC(=O)N[C@@H](C)C(=O)N1CCC[C@H]1C(=O)N1CCC[C@H]1C(=O)N1CCC[C@H]1C(=O)N[C@@H](CO)C(N)=O)[C@@H](C)O)C(C)C)C(=O)O`, the total cholesterol was 2.11 ± 0.26 mmol/L (rhesus monkey, male; subcutaneous, 300 µg/kg once daily, 28 days).
